# Results gathered from unrelated publications.
# U2AF2: U2AF2 148-342 (Homo sapiens, UniProt P26368)
# Chain of UniProt P26368 (whole entry, looked up): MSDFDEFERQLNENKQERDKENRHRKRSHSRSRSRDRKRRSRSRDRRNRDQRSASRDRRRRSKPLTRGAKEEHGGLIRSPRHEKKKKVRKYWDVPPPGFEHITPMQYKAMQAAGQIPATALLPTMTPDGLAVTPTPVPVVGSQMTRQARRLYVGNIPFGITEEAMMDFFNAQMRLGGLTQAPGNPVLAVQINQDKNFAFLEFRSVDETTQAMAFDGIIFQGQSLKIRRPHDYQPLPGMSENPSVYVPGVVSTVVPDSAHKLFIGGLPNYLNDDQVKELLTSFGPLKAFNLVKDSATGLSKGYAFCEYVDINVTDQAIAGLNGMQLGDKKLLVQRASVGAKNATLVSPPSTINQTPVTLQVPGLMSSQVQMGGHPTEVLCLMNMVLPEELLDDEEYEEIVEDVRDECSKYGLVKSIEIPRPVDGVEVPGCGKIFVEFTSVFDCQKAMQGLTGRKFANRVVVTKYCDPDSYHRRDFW
# B1: SPOP 28-359 (Homo sapiens, UniProt O43791); sequence looked up; chain KVVKFSYMWTINNFSFCREEMGEVIKSSTFSSGANDKLKWCLRVNPKGLDEESKDYLSLYLLLVSCPKSEVRAKFKFSILNAKGEETKAMESQRAYRFVQGKDWGFKKFIRRDFLLDEANGLLPDDKLTLFCEVSVVQDSVNISGQNTMNMVKVPECRLADELGGLWENSRFTDCCLCVAGQEFQAHKAILAARSPVFSAMFEHEMEESKKNRVEINDVEPEVFKEMMCFIYTGKAPNLDKMADDLLAAADKYALERLKVMCEDALCSNLSVENAAEILILADLHSADQLKTQAVDFINYHASDVLETSGWKSMVVSHPHLVAEAYRSLASA
# B2: ftsZ (Staphylococcus aureus, UniProt P0A031); sequence looked up; chain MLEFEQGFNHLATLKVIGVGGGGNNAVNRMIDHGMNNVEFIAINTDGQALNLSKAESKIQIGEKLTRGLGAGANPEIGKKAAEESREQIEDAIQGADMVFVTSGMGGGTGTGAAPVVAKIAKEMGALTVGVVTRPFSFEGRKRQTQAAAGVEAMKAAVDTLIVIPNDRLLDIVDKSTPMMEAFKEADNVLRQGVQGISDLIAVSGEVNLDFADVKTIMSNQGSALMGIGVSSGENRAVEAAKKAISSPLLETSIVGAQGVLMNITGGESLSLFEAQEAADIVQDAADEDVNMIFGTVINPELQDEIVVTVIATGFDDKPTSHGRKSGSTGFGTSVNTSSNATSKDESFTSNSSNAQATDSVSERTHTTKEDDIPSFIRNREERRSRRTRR
# B3: spnC 913-1471 (Saccharopolyspora spinosa, UniProt Q9ALM4); sequence looked up; chain AASDEARAVSDPAAGWFWQAVARQDLKSVSDALDLDADAPLSATLPALSVWHRQERERVLADGWRYRVDWVRVAPQPVRRTRETWLLVVPPGGIEEALVERLTDALNTRGISTLRLDVPPAATSGELATELRAAADGDPVKAILSLTALDERPHPECKDVPSGIALLLNLVKALGEADLRIPLWTITRGAVKAGPADRLLRPMQAQAWGLGRVAALEHPERWGGLIDLPDSLDGDVLTRLGEALTNGLAEDQLAIRQSGVLARRLVPAPANQPAGRKWRPRGSALITGGLGAVGAQVARWLAEIGAERIVLTSRRGNQAAGAAELEAELRALGAQVSIVACDVTDRAEMSALLAEFDVTAVFHAAGVGRLLPLAETDQNGLAEICAAKVRGAQVLDELCDSTDLDAFVLFSSGAGVWGGGGQGAYGAANAFLDTLAEQRRARGLPATSISWGSWAGGGMADGAAGEHLRRRGIRPMPAASAILALQEVLDQDETCVSIADVDWDRFVPTFAATRATRLFDEVPAARKAMPANGPAEPGGSPFARNLAELPEAQRRHELV
# B4: SPOP E47K (Homo sapiens, UniProt O43791); sequence looked up; chain MSRVPSPPPPAEMSSGPVAESWCYTQIKVVKFSYMWTINNFSFCREKMGEVIKSSTFSSGANDKLKWCLRVNPKGLDEESKDYLSLYLLLVSCPKSEVRAKFKFSILNAKGEETKAMESQRAYRFVQGKDWGFKKFIRRDFLLDEANGLLPDDKLTLFCEVSVVQDSVNISGQNTMNMVKVPECRLADELGGLWENSRFTDCCLCVAGQEFQAHKAILAARSPVFSAMFEHEMEESKKNRVEINDVEPEVFKEMMCFIYTGKAPNLDKMADDLLAAADKYALERLKVMCEDALCSNLSVENAAEILILADLHSADQLKTQAVDFINYHASDVLETSGWKSMVVSHPHLVAEAYRSLASAQCPFLGPPRKRLKQS
# B5: dlg1 1-97 Q26A/D27A (Drosophila melanogaster, UniProt P31007); sequence looked up; chain MPVKKQEAHRALELLEDYHARLSEPAARALRIAIERVIRIFKSRLFQALLDIQEFYELTLLDDSKSIQQKTAETLQIATKWEKDGQAVKIADFIKSS
# B6: cooS 1-639 (Rhodospirillum rubrum, UniProt P31896); chain MTHHDCAHCSSDACATEMLNLAEANSIETAWHRYEKQQPQCGFGSAGLCCRICLKGPCRIDPFGEGPKYGVCGADRDTIVARHLVRMIAAGTAAHSEHGRHIALAMQHISQGELHDYSIRDEAKLYAIAKTLGVATEGRGLLAIVGDLAAITLGDFQNQDYDKPCAWLAASLTPRRVKRLGDLGLLPHNIDASVAQTMSRTHVGCDADPTNLILGGLRVAMADLDGSMLATELSDALFGTPQPVVSAANLGVMKRGAVNIAVNGHNPMLSDIICDVAADLRDEAIAAGAAEGINIIGICCTGHEVMMRHGVPLATNYLSQELPILTGALEAMVVDVQCIMPSLPRIAECFHTQIITTDKHNKISGATHVPFDEHKAVETAKTIIRMAIAAFGRRDPNRVAIPAFKQKSIVGFSAEAVVAALAKVNADDPLKPLVDNVVNGNIQGIVLFVGCNTTKVQQDSAYVDLAKSLAKRNVLVLATGCAAGAFAKAGLMTSEATTQYAGEGLKGVLSAIGTAAGLGGPLPLVMHMGSCVDNSRAVALATALANKLGVDLSDLPLVASAPECMSEKALAIGSWAVTIGLPTHVGSVPPVIGSQIVTKLVTETAKDLVGGYFIVDTDPKSAGDKLYAAIQERRAGLGL
# B7: TRIM5 1-135 (Rhesus macaque, UniProt Q0PF16); sequence looked up; chain MASGILLNVKEEVTCPICLELLTEPLSLHCGHSFCQACITANHKKSMLYKEGERSCPVCRISYQPENIQPNRHVANIVEKLREVKLSPEEGQKVDHCARHGEKLLLFCQEDSKVICWLCERSQEHRGHHTFLMEE
# B8: dszC H391A (Rhodococcus erythropolis, UniProt P54998); sequence looked up; chain MTLSPEKQHVRPRDAADNDPVAVARGLAEKWRATAVERDRAGGSATAEREDLRASGLLSLLVPREYGGWGADWPTAIEVVREIAAADGSLGHLFGYHLTNAPMIELIGSQEQEEHLYTQIAQNNWWTGNASSENNSHVLDWKVSATPTEDGGYVLNGTKHFCSGAKGSDLLFVFGVVQDDSPQQGAIIAAAIPTSRAGVTPNDDWAAIGMRQTDSGSTDFHNVKVEPDEVLGAPNAFVLAFIQSERGSLFAPIAQLIFANVYLGIAHGALDAAREYTRTQARPWTPAGIQQATEDPYTIRSYGEFTIALQGADAAAREAAHLLQTVWDKGDALTPEDRGELMVKVSGVKALATNAALNISSGVFEVIGARGTHPRYGFDRFWRNVRTHSLADPVSYKIADVGKHTLNGQYPIPGFTS
# B9: SPOP K129E (Homo sapiens, UniProt O43791); sequence looked up; chain MSRVPSPPPPAEMSSGPVAESWCYTQIKVVKFSYMWTINNFSFCREEMGEVIKSSTFSSGANDKLKWCLRVNPKGLDEESKDYLSLYLLLVSCPKSEVRAKFKFSILNAKGEETKAMESQRAYRFVQGEDWGFKKFIRRDFLLDEANGLLPDDKLTLFCEVSVVQDSVNISGQNTMNMVKVPECRLADELGGLWENSRFTDCCLCVAGQEFQAHKAILAARSPVFSAMFEHEMEESKKNRVEINDVEPEVFKEMMCFIYTGKAPNLDKMADDLLAAADKYALERLKVMCEDALCSNLSVENAAEILILADLHSADQLKTQAVDFINYHASDVLETSGWKSMVVSHPHLVAEAYRSLASAQCPFLGPPRKRLKQS
# B10: MIR1 S285A (Saccharomyces cerevisiae, UniProt P23641); sequence looked up; chain MSVSAAPAIPQYSVSDYMKFALAGAIGCGSTHSSMVPIDVVKTRIQLEPTVYNKGMVGSFKQIIAGEGAGALLTGFGPTLLGYSIQGAFKFGGYEVFKKFFIDNLGYDTASRYKNSVYMGSAAMAEFLADIALCPLEATRIRLVSQPQFANGLVGGFSRILKEEGIGSFYSGFTPILFKQIPYNIAKFLVFERASEFYYGFAGPKEKLSSTSTTLLNLLSGLTAGLAAAIVSQPADTLLSKVNKTKKAPGQSTVGLLAQLAKQLGFFGSFAGLPTRLVMVGTLTALQFGIYGSLKSTLGCPPTIEIGGGGH
# B11: TAF15 7-99 del82-96 (Homo sapiens, UniProt Q92804); sequence looked up; chain YGQSGGEQQSYSTYGNPGSQGYGQASQSYSGYGQTTDSSYGQNYSGYSSYGQSQSGYSQSYGGYENQKQSSYSQQSQG
# B12: TARDBP LC domain 262-414; chain PKHNSNRQLERSGRFGGNPGGFGNQGGFGNSRGGGAGLGNNQGSNMGGGMNFGAFSINPAMMAAAQAALQSSWGMMGMLASQQNQSGPSGNNQNQGNMQREPNQAFGSGNNSYSGSNSGAAIGWGSASNAGSGSGFNGGFGSSMDSKSSGWGM
# B13: NINJ1 F117Q (Homo sapiens, UniProt Q92982); sequence looked up; chain MDSGTEEYELNGGLPPGTPGSPDASPARWGWRHGPINVNHYASKKSAAESMLDIALLMANASQLKAVVEQGPSFAFYVPLVVLISISLVLQIGVGVLLIFLVKYDLNNPAKHAKLDQLNNLATGLVFIIVVVNIFITAFGVQKPLMDMAPQQ
# B14: IL2 mature E62A (Bos taurus, UniProt P05016); sequence looked up; chain APTSSSTGNTMKEVKSLLLDLQLLLEKVKNPENLKLSRMHTFDFYVPKVNATELKHLKCLLAELKLLEEVLNLAPSKNLNPREIKDSMDNIKRIVLELQGSETRFTCEYDDATVNAVEFLNKWITFCQSIYSTMT
# B15: human aldolase A; sequence looked up; chain PYQYPALTPEQKKELSDIAHRIVAPGKGILAADESTGSIAKRLQSIGTENTEENRRFYRQLLLTADDRVNPCIGGVILFHETLYQKADDGRPFPQVIKSKGGVVGIKVDKGVVPLAGTNGETTTQGLDGLSERCAQYKKDGADFAKWRCVLKIGEHTPSALAIMENANVLARYASICQQNGIVPIVEPEILPDGDHDLKRCQYVTEKVLAAVYKALSDHHIYLEGTLLKPNMVTPGHACTQKFSHEEIAMATVTALRRTVPPAVTGITFLSGGQSEEEASINLNAINKCPLLKPWALTFSYGRALQASALKAWGGKKENLKAAQEEYVKRALANSLACQGKYTPSGQAGAAASESLFVSNHAY
Substance,target or system,assay,test system,conditions,how to read,measurement,result
B1 (SPOP 28-359),itself,cross-linking,,,,binding,binds
B2 (ftsZ),itself,co-sedimentation,,,,binding,binds
B3 (spnC 913-1471),itself,crystal structure,,added: NADP+,,binding,binds
B4 (SPOP E47K),itself,negative-stain TEM,,,,binding,binds
B5 (dlg1 1-97 Q26A/D27A),itself,SEC,,,,binding,binds
B6 (cooS 1-639),itself,SEC-MALS,,,,binding,binds
B7 (TRIM5 1-135),itself,AUC,,sedimentation velocity,,binding,binds
B8 (dszC H391A),itself,SEC,,,,binding,binds
CUGUUUCUU (ssRNA),U2AF2,sequencing of bound RNA,RNA,motif only,,Kd,17 µM
B9 (SPOP K129E),itself,negative-stain TEM,,,,binding,binds
B10 (MIR1 S285A),itself,pull-down,,,,binding,binds
B11 (TAF15 7-99 del82-96),itself,"ThT fluorescence, negative-stain TEM",,peptide,,binding,binds
B12 (TARDBP LC domain 262-414),itself,"phase separation, light microscopy",,,,binding,binds
human HuR,CYB5R4 knockout human cells,"PP4 interaction, 3xFLAG-PP4C IP-MS",,concentration not given,baseline: CYB5R4 KO over parental,log2 fold change,-0.46
B13 (NINJ1 F117Q),itself,negative-stain EM,,,,binding,binds
B14 (IL2 mature E62A),itself,SDS-PAGE,,,,binding,binds
"IMPDH1 (Homo sapiens, UniProt P20839)",itself,negative stain electron microscopy,,,,binding,binds
CACUUUUCU (ssRNA),U2AF2,sequencing of bound RNA,RNA,motif only,,Kd,0.61 µM
B15 (human aldolase A),PP6C (human),"co-immunoprecipitation, IP-MS",CYB5R4 knockout cells,concentration not given,baseline: CYB5R4 knockout over parental,log2 fold change,1.11

# Excerpt of the above:
Substance,target or system,assay,test system,conditions,how to read,measurement,result
B11 (TAF15 7-99 del82-96),itself,"ThT fluorescence, negative-stain TEM",,peptide,,binding,binds
B12 (TARDBP LC domain 262-414),itself,"phase separation, light microscopy",,,,binding,binds
